Published values of several laboratories.
Numbered parts are unrelated; each lists some results of a single study.

Block 1 — method: universal PBM; molecule type: double-stranded DNA, one strand shown; matrix: in vitro; concentration: not given; direction: higher = stronger binding
Target: Sal-like protein 4, full length isoform B (SALL4, Homo sapiens, UniProt Q9UJQ4-2, residues 1-616)
Notes: 8-mer, flanks averaged, mean of replicates
`CCGCTGCA` has an E-score of -0.186.
`GAGTGGAA` gave an E-score of 0.138.
With `AATGTGAG` the E-score was 0.138.
The E-score of `CATGGATC` is reported as -0.034.
`GGCGTCCC` gave an E-score of -0.395.
`CCAATTAA` has an E-score of 0.173.
`GGGTATAA` gave an E-score of 0.145.
With `AACTCCAG` the E-score was -0.2.
For `CTGCTCTC`, the E-score was -0.0924.
With `ATTTAGTA` the E-score was 0.317.
With `CCCCCGCG` the E-score was -0.348.
For `CTAAGGCC`, the E-score was -0.177.
`TAGTTAGA` gave an E-score of 0.121.
The E-score of `CAGTGTTC` is reported as -0.00811.
For `GCCGCAGA`, the E-score was -0.237.
With `ACATACAC` the E-score was 0.202.
`CCTCCGAG` has an E-score of -0.304.
`GCGTACGC` gave an E-score of -0.0487.
The E-score of `AGGATTAG` is reported as 0.0987.
The E-score of `TCGCTTCA` is reported as 0.0599.
`AACGTGGA` gave an E-score of -0.039.
`CCAAACCA` has an E-score of -0.0591.
`GTTTGTAA` has an E-score of 0.135.
For `GGGCCTTA`, the E-score was -0.168.
`GAATTGAA` gave an E-score of 0.191.

Block 2 — method: protein binding microarray; molecule type: double-stranded DNA, one strand shown; matrix: in vitro; concentration: not given; relative to: not given; direction: higher = stronger binding
Target: Histone acetyltransferase KAT6A, winged helix 2, GST fusion (KAT6A, Homo sapiens, UniProt Q92794, residues 85-181)
Notes: 8-mer, flanks averaged, mean of 2 arrays, mostly near background
Target sequence (chain): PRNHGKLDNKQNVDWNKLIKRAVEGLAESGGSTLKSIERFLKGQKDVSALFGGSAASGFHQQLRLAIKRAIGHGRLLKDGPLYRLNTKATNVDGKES
`TATTGTAA` gave an E-score of -0.0292.
`CGACGCCG` has an E-score of 0.226.
The E-score of `CGCGGCAA` is reported as 0.119.
For `CGCTCCAG`, the E-score was 0.174.
For `AAGGATCG`, the E-score was -0.138.
With `GAAGCGTA` the E-score was 0.00321.
`GCCGCGTA` gave an E-score of 0.0413.
The E-score of `GGACATCA` is reported as 0.126.
With `CCTGTTAC` the E-score was -0.147.
The E-score of `ATGCGCGA` is reported as 0.133.
`AGTTACTG` has an E-score of -0.196.
For `TCCCGCGA`, the E-score was 0.11.
With `CGCCCAGA` the E-score was 0.0217.
`AGGACGAC` gave an E-score of -0.0982.
`TAAAGAAA` gave an E-score of 0.16.
With `CCGAGTCA` the E-score was 0.076.
The E-score of `GTTAACGA` is reported as -0.077.
The E-score of `ATTATTAG` is reported as -0.00946.
With `CACAGGGC` the E-score was 0.098.
The E-score of `CATAACAG` is reported as -0.0637.
For `CTTGGATA`, the E-score was -0.158.
`ATCACCCG` gave an E-score of 0.13.
With `CCAGCCCG` the E-score was 0.0388.
`ATATTCGG` gave an E-score of 0.0302.
`GGCCCATA` has an E-score of -0.0819.

Block 3 — method: RNA Bind-n-Seq; molecule type: RNA; matrix: in vitro; concentration: not given; relative to: input RNA pool; direction: higher = stronger binding
Target: RING finger protein unkempt homolog, zinc fingers 1-6, GST-SBP tag (UNK, Homo sapiens, UniProt Q9C0B0, residues 30-357)
UniProt Q9C0B0, sequence (30-357, looked up): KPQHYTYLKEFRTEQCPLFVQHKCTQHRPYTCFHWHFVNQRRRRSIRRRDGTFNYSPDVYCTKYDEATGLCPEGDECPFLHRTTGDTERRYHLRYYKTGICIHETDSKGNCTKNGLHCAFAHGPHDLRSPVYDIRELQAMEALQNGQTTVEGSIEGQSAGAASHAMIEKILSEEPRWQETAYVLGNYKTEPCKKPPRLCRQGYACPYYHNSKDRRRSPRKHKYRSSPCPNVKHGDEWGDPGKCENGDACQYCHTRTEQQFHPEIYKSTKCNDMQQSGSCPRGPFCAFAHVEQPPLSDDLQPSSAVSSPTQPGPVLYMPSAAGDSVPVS
Notes: RNA with constant flanks, human and mouse sites, ends assumed
Shared flanks, not repeated: GGGAGUUCUACAGUCCGACGAUC … CAACAGAGGAUUGAGCAUCA
`GAGGAGGACCAGAGGACUGGGAAGCCUCUAGAAAAAGAAAAUCAGGAAUCUCUGAGGUCUCUUGAUGAAAACCAGGAGACAAUUGUACUGCUAGAAAGCAAGAACCAGAGGCCACUGAGA` has a bound/input enrichment of 0.371 ratio.
With `CAGGGCAUCAUCUCUCGUGCUGUUAGACACCUGUUCAAGAGUAUUGAUGAGAAAAAGACCUCAGCGAUUAAAAACGGGCUGCCCCCUCCUGAAUUCAAAGUGAAUGCCCAGUUCCUAGAG` the bound/input enrichment was 0.22 ratio.
For `CAUUUGAAGAGGAACAUUGGUGUUACAGCUGUGGCCUUUAAUAAGGAACUUGAUCCUGUACAGAAACUCUUCGUGGACAAGAUAAGAGAGUACAAAUCAAAGCGACAGGCAUCUGGAGGA`, the bound/input enrichment was 0.445 ratio.
For `GGGAAGAAUGGAAAGCAGGGCUUCCCAGACAGAGAAAGCCCAGUUUCUGACCUGACUUCCACUGGUCUUUACCAAGACAAACAGGAAGAGAAAAGCACGGGCUUCAUACCCAUAAAGGAA`, the bound/input enrichment was 0.174 ratio.
`AAACAUAACAUAUCUUUAAAGCUUUUCUAUCUUCUUUUGAAAUUUGGACCAAUAAAAUUCUAGGUGAUAUGGAGGAUUGUAUUGCUCAACUUCUCAUAGUGAGACAACACGUAACAAAAC` gave a bound/input enrichment of 4.62 ratio.
`CAAGUUGGUGACCGUUGUUAUGAUGAAAAAAUGUAUGAUGCUGCUAAGUUGUUGUACAAUAAUGUUUCCAAUUUUGGACGUUUGGCAUCUACCCUGGUUCACCUGGGUGAAUAUCAGGCA` gave a bound/input enrichment of 0.172 ratio.
`GCUGGGCAUAUAAUGGAAUUUUCUCAAGACCAGCAUGGCUCUAGAUUCAUUCAGCUGAAACUAGAGCGUGCCACAGCAGCUGAGCGCCAGCUUGUCUUCAAUGAAAUCCUCCAGGCUGCG` has a bound/input enrichment of 0.153 ratio.
`UCAGAGCAAAAUCCAGCUGCUUCUUAUUAUAAUGUAGAUGUAUUAAAGUAUCAGGUAUCAUCAAAUGGUAUUCAGUCCACUCCUCUGAAUCUUGCAACAUACUGGAAAUGUAGUGCUAGC` has a bound/input enrichment of 1.05 ratio.

Block 4 — method: protein-binding microarray; molecule type: double-stranded DNA, one strand shown; matrix: in vitro; concentration: 250 nM; notes: 60-bp whole probe; added: salmon DNA 0.4 mg/ml; relative to: random background probes; direction: higher = stronger binding; shared flanks, not repeated: GCCTAGCAC … GTCTTGATTCGCTTGACGCTGCTG
Target: Interferon regulatory factor 7, full length, phosphomimetic (IRF7, Homo sapiens, UniProt Q92985, residues 1-503, S101K/S471D/S472D/S475D/S476D/S477D/S483D/S484D/S487D)
UniProt Q92985, sequence (whole entry, unmodified, looked up): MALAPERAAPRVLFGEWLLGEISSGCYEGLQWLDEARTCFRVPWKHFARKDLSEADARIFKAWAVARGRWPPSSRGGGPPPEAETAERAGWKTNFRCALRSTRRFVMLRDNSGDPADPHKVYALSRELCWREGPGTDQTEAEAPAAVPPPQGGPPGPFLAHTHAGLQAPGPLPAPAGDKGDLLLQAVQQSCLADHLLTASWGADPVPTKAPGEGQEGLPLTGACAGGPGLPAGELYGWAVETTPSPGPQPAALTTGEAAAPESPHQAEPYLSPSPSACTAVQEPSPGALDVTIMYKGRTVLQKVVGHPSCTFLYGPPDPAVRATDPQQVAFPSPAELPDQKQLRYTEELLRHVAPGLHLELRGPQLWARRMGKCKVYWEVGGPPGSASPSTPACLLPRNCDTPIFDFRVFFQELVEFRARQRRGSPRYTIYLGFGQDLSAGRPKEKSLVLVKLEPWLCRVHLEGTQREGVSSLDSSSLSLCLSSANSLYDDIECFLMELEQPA
The log fluorescence of `TCACCTATCAGTTTAATACTGTGCTAG` is reported as 0.264 z-score.
With `TTAGGTATCGGTCTCGGTTGGTGCTAG` the log fluorescence was 2.6 z-score.
For `CCTAGTTTCATTCCTGATCTGTGCTAG`, the log fluorescence was 3.34 z-score.
With `GAGGATTCCAGTTTCGAGACGTGCTAG` the log fluorescence was 5.91 z-score.
The log fluorescence of `GACGGTTTCCTTTCCCTGGCGTGCTAG` is reported as 4.94 z-score.
For `GACGGTATCGACACTGGTGACGTGCTA`, the log fluorescence was -0.263 z-score.
The log fluorescence of `GGAGTGGGAAGCTTCGCTCCGTGCTAG` is reported as -0.568 z-score.
For `TTGGTTCTCAGCTTGGGGCAGTGCTAG`, the log fluorescence was 0.534 z-score.
For `TCACGTATCTTCATTGTACTGTGCTAG`, the log fluorescence was 0.562 z-score.
The log fluorescence of `TCATGCTTCGAGATCTCACTGTGCTAG` is reported as 0.387 z-score.
`TCAATTTTTACATTATTACTGTGCTAG` gave a log fluorescence of 0.515 z-score.
With `GACGGTTTCCTTCTCCTGTCGTGCTAG` the log fluorescence was 3.18 z-score.
`GACGGCCTGGACACTGGGGACGTGCTA` gave a log fluorescence of -0.687 z-score.
With `GACGGGCTCGGACTGGGGACGTGCTAG` the log fluorescence was -0.412 z-score.
`TTAGACTTCGGGTTTCGATTAGTGCTA` gave a log fluorescence of 6.33 z-score.
`TTAGCTTTCAGTTTCGATTAGTGCTAG` gave a log fluorescence of 8.63 z-score.
`CCCAGACTTGATTTTGGTCTGTGCTAG` gave a log fluorescence of -0.0434 z-score.

Repeated from above (block 1):
`GGGTATAA` gave an E-score of 0.145.
With `AACTCCAG` the E-score was -0.2.
For `CTGCTCTC`, the E-score was -0.0924.
With `ATTTAGTA` the E-score was 0.317.
With `CCCCCGCG` the E-score was -0.348.
